Measurements gathered from unrelated publications.
A part holds a random share of what one study measured. Several values in a cell are separate wells, animals, samples, runs or records.
Chain of UniProt P06493 (whole entry, looked up): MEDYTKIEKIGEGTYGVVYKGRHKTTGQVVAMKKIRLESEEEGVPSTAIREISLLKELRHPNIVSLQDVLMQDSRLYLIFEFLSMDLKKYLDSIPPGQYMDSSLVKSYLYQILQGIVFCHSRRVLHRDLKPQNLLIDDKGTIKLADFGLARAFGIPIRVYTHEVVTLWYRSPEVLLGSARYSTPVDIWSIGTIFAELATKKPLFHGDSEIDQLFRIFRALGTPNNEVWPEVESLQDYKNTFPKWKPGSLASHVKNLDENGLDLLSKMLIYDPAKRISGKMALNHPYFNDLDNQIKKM
Chain of UniProt Q7KZI7 (whole entry, looked up): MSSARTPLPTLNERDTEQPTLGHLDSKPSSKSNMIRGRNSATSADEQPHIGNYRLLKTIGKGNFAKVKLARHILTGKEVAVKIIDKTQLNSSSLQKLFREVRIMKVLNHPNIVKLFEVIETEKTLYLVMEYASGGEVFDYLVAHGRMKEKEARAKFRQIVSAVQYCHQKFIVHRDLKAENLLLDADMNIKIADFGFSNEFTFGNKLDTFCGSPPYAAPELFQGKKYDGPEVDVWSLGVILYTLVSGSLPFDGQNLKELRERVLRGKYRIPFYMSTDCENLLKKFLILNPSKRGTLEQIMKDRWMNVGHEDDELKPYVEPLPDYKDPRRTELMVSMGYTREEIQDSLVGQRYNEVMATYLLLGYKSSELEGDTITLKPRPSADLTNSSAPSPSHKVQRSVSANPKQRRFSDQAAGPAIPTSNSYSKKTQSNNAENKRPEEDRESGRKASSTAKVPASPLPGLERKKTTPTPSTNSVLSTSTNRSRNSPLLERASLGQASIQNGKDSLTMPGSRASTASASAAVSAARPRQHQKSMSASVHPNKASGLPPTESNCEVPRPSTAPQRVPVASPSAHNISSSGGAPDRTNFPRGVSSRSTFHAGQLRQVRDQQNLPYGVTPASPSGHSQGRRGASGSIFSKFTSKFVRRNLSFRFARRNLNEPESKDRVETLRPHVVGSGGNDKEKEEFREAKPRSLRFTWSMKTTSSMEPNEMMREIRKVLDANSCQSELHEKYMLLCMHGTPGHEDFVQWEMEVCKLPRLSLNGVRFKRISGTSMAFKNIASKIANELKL
Chain of UniProt Q9Y5S2 (whole entry, looked up): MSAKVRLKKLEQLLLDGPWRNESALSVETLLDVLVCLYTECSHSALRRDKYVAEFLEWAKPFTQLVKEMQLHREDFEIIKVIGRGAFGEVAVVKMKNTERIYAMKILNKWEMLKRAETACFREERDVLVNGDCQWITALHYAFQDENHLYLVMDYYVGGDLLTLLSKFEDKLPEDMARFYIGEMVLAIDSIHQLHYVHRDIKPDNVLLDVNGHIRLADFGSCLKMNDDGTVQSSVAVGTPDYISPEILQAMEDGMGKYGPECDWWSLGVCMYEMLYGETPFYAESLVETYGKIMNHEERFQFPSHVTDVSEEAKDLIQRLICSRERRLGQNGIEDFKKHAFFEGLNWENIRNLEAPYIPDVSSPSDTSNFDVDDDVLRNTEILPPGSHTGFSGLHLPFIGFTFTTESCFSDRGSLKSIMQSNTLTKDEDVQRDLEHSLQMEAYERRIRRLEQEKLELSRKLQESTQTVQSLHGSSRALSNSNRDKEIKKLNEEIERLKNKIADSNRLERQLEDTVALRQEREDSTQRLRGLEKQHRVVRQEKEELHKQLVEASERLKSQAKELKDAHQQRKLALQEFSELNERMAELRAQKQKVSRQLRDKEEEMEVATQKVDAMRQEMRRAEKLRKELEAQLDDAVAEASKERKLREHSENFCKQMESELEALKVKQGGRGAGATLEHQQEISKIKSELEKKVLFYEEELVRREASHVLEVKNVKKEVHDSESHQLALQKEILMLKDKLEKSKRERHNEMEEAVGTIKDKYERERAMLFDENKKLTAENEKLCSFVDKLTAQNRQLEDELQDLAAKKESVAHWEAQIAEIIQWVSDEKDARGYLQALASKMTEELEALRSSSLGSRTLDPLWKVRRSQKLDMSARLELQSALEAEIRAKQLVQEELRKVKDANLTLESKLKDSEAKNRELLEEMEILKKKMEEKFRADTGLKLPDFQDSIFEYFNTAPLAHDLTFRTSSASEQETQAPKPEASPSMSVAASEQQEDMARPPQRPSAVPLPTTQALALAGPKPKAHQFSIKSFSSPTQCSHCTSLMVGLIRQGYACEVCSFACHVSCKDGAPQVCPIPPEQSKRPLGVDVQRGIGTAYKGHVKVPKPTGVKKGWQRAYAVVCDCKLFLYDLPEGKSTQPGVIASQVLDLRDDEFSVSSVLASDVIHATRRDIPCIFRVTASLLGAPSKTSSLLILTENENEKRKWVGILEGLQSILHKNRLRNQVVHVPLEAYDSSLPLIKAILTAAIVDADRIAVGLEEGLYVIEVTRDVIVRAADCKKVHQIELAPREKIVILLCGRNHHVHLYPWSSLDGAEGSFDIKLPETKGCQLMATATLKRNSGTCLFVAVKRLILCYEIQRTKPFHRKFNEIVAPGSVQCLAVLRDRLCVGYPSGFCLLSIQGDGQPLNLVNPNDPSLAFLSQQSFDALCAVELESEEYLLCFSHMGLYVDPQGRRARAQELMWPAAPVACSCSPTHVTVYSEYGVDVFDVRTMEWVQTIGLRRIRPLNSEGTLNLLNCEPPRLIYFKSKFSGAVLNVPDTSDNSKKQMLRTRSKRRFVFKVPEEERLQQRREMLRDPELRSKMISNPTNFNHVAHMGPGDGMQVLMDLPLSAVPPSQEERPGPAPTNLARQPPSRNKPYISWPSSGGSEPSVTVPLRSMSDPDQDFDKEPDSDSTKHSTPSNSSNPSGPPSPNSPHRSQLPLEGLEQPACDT
Chain of UniProt P16234 (whole entry, looked up): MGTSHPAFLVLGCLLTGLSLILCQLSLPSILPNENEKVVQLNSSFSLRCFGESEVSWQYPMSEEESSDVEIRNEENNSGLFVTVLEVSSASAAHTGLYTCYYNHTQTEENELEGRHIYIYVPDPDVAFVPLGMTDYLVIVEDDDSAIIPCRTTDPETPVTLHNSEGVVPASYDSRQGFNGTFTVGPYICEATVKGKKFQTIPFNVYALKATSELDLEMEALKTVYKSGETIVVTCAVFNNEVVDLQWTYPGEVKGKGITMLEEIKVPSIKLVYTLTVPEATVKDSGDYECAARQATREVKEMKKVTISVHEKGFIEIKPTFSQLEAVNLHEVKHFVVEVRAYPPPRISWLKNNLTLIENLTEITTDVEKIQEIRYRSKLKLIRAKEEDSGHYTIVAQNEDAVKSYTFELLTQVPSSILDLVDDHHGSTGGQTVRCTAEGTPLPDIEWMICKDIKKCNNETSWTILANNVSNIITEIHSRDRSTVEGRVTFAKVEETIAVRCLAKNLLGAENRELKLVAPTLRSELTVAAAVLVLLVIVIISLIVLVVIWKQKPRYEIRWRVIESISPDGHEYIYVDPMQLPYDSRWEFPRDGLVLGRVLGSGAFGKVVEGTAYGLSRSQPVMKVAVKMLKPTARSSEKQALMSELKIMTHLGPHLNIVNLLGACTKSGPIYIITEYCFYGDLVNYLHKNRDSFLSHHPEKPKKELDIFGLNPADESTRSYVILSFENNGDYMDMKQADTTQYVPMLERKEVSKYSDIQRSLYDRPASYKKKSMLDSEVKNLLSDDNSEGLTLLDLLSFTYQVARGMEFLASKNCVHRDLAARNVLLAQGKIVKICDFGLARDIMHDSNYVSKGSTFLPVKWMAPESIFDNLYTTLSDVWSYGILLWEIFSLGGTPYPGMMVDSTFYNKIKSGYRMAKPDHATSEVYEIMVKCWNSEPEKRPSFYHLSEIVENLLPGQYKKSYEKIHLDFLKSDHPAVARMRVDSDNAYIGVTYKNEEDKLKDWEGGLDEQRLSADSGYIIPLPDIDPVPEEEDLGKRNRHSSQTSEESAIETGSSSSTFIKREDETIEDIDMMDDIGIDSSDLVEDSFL
Chain of UniProt Q9BQI3 (whole entry, looked up): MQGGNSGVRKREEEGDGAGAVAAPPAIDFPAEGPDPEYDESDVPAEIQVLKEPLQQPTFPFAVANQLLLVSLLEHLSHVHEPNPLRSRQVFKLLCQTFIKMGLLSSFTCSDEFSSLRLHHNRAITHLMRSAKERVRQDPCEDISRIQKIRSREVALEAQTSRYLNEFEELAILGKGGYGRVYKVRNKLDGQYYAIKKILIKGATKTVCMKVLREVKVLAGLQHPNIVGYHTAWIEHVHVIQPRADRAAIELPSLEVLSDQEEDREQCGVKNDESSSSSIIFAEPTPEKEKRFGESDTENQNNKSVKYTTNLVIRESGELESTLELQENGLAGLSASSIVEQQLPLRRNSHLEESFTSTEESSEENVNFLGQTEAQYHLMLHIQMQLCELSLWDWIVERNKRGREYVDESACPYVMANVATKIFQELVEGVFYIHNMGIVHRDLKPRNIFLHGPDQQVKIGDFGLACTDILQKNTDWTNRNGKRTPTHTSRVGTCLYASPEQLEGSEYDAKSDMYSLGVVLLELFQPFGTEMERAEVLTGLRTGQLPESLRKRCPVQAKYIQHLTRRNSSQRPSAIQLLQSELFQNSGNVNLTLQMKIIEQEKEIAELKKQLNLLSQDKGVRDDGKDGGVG
Chain of UniProt P51956 (whole entry, looked up): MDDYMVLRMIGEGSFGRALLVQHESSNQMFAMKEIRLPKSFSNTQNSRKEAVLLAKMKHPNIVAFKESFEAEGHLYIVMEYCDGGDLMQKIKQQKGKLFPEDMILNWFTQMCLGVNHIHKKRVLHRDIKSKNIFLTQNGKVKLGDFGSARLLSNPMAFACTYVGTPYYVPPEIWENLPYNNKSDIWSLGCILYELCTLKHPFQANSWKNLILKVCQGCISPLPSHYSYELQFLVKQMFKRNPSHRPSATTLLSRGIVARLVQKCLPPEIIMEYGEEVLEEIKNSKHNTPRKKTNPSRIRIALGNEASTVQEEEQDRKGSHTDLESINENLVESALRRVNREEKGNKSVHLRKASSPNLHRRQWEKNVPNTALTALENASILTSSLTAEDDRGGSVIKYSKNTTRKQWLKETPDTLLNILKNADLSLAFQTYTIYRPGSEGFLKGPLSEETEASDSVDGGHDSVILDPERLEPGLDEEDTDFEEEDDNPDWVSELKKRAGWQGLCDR

Block 1
SMILES: CC(=O)Nc1c(C(C)=O)c(=O)n(C)c2nc(-c3ccc(Cl)cc3Cl)c(-c3ccc(Cl)cc3)cc12
Observed: cell-free assay
Technique: competition with immobilised ligand
Concentration: 1 µM
For PDGFRA (Homo sapiens, UniProt P16234): remaining binding read 100%.
The remaining binding was 68% (EIF2AK1 (Homo sapiens, UniProt Q9BQI3)).
It gave 100% for remaining binding (MYLK3 (Homo sapiens, UniProt Q32MK0)).
The remaining binding was 100% (SLK (Homo sapiens, UniProt Q9H2G2)).
For CAMK1G (Homo sapiens, UniProt Q96NX5): remaining binding read 100%.
The remaining binding was 100% (TRPM6 (Homo sapiens, UniProt Q9BX84)).
ALK (Homo sapiens, UniProt Q9UM73, L1196M) — remaining binding: 100%.

Block 2
SMILES: CC(C)n1cnc(-c2ccc(F)cc2)c1-c1ncc(C(=O)Nc2ccc(N3CCN(C)CC3)cc2)[nH]1
Technique: phase 2a clinical trial
Host: patients with idiopathic pulmonary fibrosis
item: hepatic function abnormal; 60 mg once daily, Grade 4 — “patients with treatment-emergent adverse events”: 0%.
The “patients with treatment-emergent adverse events” was 0% (item: left ventricular dysfunction; 60 mg once daily, Grade 2).
The “patients with treatment-emergent adverse events” was 0% (item: metabolism and nutrition disorders (SOC); 60 mg once daily, Grade 4).
item: lumbar vertebral fracture; 60 mg once daily, Grade 2, maximum intensity — “patients with treatment-emergent adverse events”: 0%.
It gave 0% for “patients with treatment-emergent adverse events” (item: investigations (SOC); 30 mg once daily, Grade 4).
For item: electrocardiogram T wave abnormal; 60 mg once daily, Grade 5: “patients with treatment-emergent adverse events” read 0%.
It gave 0% for “patients with treatment-emergent adverse events” (item: investigations (SOC); 60 mg once daily, Grade 4).
It gave 0% for “patients with treatment-emergent adverse events” (item: first degree atrioventricular block; 30 mg once daily, Grade 3).

Block 3
Structure (SMILES): CC(=O)N[C@@H](Cc1c[nH]c2ccccc12)C(=O)N[C@@H](CCC(=O)C=[N+]=[N-])C(=O)OC(C)C
The tumour volume was 814 mm3 and 520 mm3 and 256 mm3 and 748 mm3 and 441 mm3 and 438 mm3 (mouse, EL4 tumour; subcutaneous, 0.3 mg/kg, day 7).
C57BL/6 CES1-/- mouse, EL4 tumour; intravenous, 1 mg/kg DON equivalent, treatment day 9, 5 days per week — tumour volume: 593 mm3 and 246 mm3 and 528 mm3 and 783 mm3 and 626 mm3 and 282 mm3 and 342 mm3 and 516 mm3.
mice, MC-38 tumour rechallenge; 0.26 mg/kg, day 6 after injection — tumour volume: 4 mm3 and 32.7 mm3.
mice, MC-38 tumour rechallenge; 0.26 mg/kg, day 53 after injection — tumour volume: 0 mm3.
C57BL/6 CES1-/- mouse, EL4 tumour; intravenous, 1 mg/kg DON equivalent, treatment day 17, 5 days per week — tumour volume: 0 mm3 and 86.9 mm3 and 88.9 mm3 and 154 mm3.

Block 4
Structure (SMILES): O=C(c1cc2cc(O)ccc2[nH]1)c1cc2cc(O)ccc2[nH]1
Observed: enzyme activity
Mode: inhibitor
Concentration: 0.5 µM
Baseline: control
PNCK (Homo sapiens, UniProt Q6P2M8) — remaining activity: 105%.
It gave 104% for remaining activity (AKT2 (Homo sapiens, UniProt P31751)).
The remaining activity was 113% (MAPK1 (Homo sapiens, UniProt P28482)).
It gave 111% for remaining activity (NEK3 (Homo sapiens, UniProt P51956)).
It gave 69.9% for remaining activity (KDR (Homo sapiens, UniProt P35968)).
It gave 55.3% for remaining activity (MARK4 (Homo sapiens, UniProt Q96L34)).
It gave 59.9% for remaining activity (MARK2 (Homo sapiens, UniProt Q7KZI7)).
It gave 96.2% for remaining activity (CDC42BPB (Homo sapiens, UniProt Q9Y5S2)).
ROCK1 (Homo sapiens, UniProt Q13464) — remaining activity: 96.2%.
The remaining activity was 96.5% (CAMK4 (Homo sapiens, UniProt Q16566)).
It gave 95.7% for remaining activity (DDR2 (Homo sapiens, UniProt Q16832)).
Cyclin-dependent kinase 1, with cyclin A (CDK1, Homo sapiens, UniProt P06493) — remaining activity: 88.2%.
Cyclin-dependent kinase 9, with cyclin K (CDK9, Homo sapiens, UniProt P50750) — remaining activity: 49.5%.

A few entries again (block 4):
Cyclin-dependent kinase 1, with cyclin A (CDK1, Homo sapiens, UniProt P06493) — remaining activity: 88.2%.
It gave 69.9% for remaining activity (KDR (Homo sapiens, UniProt P35968)).
